Results pooled from the literature.
Protocols differ between the studies behind these lines. Several values in a cell are separate wells, animals, samples, runs or records. pEC50, pKi: −log10 of the molar value.
ADRA2C: Alpha-2C adrenergic receptor (ADRA2C, Homo sapiens, UniProt P18825)
Chain of UniProt P18825 (whole entry, looked up): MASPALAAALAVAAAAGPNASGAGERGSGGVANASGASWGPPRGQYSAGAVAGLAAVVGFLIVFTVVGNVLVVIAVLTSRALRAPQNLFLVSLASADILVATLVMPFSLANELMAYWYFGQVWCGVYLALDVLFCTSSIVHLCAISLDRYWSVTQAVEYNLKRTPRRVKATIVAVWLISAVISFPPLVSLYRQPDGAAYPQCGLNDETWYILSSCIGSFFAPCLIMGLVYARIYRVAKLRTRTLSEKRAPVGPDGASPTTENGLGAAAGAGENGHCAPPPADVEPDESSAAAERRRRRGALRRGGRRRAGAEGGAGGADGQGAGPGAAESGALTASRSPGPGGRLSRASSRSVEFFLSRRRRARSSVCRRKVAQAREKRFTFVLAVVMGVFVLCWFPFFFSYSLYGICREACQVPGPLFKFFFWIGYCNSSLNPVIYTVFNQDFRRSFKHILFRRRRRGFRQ
OSBP: Oxysterol-binding protein 1 (OSBP, Homo sapiens, UniProt P22059)
Chain of UniProt P22059 (whole entry, looked up): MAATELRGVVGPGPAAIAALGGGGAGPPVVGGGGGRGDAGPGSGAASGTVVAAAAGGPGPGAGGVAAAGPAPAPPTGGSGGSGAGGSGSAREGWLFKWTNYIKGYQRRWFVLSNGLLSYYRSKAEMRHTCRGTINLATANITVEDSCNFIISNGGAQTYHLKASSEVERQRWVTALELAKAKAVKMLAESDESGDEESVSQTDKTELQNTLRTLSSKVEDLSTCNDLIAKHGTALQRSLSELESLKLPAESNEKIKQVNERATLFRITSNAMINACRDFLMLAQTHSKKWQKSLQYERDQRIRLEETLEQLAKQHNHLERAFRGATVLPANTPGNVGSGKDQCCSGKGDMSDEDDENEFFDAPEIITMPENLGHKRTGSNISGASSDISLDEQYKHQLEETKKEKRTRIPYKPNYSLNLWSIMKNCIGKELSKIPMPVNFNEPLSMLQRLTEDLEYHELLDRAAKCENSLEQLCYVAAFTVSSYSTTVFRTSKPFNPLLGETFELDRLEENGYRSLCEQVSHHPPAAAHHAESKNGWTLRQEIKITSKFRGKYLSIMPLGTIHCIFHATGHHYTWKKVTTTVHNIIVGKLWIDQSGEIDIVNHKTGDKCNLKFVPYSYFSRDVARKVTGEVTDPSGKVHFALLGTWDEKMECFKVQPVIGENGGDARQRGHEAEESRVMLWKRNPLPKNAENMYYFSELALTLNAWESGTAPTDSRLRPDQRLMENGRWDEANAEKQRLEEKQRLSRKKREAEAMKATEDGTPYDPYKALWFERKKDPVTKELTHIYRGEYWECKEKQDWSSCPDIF
HDAC8: Histone deacetylase 8 (HDAC8, Homo sapiens, UniProt Q9BY41)
Chain of UniProt Q9BY41 (whole entry, looked up): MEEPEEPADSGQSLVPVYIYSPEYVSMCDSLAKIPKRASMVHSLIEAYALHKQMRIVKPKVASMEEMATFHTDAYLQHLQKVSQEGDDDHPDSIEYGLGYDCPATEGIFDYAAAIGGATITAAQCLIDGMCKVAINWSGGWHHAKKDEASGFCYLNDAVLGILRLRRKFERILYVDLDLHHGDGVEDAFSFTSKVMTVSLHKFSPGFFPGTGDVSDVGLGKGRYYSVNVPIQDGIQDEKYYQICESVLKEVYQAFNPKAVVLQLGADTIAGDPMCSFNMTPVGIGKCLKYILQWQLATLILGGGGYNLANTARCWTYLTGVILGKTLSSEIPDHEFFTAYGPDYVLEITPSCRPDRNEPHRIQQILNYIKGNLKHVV
Tspo: Translocator protein (Tspo, Rattus norvegicus, UniProt P16257)
Chain of UniProt P16257 (whole entry, looked up): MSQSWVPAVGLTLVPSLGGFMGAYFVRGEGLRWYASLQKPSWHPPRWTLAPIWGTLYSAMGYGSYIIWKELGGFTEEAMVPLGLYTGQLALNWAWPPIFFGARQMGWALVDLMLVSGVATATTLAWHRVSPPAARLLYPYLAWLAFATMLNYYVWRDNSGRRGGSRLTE
HDAC6: Protein deacetylase HDAC6 (HDAC6, Homo sapiens, UniProt Q9UBN7)
Chain of UniProt Q9UBN7 (whole entry, looked up): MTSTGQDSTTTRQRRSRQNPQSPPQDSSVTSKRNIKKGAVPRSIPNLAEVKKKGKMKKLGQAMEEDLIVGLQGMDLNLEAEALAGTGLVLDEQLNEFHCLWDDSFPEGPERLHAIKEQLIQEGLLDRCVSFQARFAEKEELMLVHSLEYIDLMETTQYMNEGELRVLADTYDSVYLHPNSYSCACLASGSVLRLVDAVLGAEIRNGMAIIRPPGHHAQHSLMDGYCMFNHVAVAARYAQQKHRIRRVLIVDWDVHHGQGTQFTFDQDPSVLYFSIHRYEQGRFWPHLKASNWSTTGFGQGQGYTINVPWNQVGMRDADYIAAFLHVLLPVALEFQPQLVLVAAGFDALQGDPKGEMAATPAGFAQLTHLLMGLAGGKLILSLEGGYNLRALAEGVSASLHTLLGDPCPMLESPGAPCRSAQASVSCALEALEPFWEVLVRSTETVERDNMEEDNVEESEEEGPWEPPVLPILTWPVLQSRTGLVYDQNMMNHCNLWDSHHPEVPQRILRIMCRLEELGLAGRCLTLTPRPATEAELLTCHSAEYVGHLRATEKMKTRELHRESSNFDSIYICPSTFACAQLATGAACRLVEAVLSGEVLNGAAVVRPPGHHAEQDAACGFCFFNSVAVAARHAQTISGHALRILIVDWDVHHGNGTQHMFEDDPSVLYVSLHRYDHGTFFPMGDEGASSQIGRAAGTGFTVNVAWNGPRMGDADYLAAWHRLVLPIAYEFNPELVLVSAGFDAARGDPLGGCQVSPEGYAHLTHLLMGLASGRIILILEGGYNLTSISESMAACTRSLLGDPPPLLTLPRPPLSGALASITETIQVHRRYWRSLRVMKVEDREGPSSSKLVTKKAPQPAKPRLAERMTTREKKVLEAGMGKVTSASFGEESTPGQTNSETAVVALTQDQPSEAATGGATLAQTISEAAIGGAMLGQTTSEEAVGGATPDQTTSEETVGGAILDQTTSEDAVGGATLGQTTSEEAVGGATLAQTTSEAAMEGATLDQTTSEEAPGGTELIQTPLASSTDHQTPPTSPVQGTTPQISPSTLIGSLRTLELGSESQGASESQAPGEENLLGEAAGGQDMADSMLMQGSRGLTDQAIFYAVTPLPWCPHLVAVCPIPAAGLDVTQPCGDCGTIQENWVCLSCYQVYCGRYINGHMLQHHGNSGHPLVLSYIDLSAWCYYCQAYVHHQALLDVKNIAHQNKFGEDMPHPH
ADRA2B: Alpha-2B adrenergic receptor (ADRA2B, Homo sapiens, UniProt P18089)
Chain of UniProt P18089 (whole entry, looked up): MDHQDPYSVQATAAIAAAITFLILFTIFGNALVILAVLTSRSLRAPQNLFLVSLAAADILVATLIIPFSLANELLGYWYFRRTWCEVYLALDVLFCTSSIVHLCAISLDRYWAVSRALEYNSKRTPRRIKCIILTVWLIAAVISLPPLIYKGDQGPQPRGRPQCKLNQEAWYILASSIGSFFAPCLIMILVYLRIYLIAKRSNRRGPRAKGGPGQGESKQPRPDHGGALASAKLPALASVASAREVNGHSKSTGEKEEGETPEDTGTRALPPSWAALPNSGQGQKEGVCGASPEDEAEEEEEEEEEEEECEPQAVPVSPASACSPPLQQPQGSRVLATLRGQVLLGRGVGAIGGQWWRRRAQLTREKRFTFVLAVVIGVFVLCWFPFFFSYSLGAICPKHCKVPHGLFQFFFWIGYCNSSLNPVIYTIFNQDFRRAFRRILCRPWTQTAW
ADRA1A: Alpha-1A adrenergic receptor (ADRA1A, Homo sapiens, UniProt P35348)
Chain of UniProt P35348 (whole entry, unmodified, looked up): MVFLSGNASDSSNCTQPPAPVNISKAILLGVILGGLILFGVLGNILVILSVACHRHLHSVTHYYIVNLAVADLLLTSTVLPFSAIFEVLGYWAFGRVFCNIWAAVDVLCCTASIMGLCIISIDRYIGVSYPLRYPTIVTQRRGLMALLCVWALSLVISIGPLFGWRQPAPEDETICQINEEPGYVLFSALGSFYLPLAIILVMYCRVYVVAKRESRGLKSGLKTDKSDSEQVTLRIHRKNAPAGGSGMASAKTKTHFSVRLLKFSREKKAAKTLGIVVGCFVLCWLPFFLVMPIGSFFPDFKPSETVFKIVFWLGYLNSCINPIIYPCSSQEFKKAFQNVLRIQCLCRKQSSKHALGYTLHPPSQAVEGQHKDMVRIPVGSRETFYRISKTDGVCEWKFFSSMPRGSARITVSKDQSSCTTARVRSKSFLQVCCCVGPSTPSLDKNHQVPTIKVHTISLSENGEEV
Chain of UniProt Q5BJF2 (whole entry, looked up): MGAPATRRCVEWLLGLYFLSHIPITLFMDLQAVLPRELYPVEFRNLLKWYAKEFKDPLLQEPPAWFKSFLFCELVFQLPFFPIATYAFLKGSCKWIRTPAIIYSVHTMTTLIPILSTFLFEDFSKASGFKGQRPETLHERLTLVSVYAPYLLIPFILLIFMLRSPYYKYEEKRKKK
Chain of UniProt Q13554 (whole entry, looked up): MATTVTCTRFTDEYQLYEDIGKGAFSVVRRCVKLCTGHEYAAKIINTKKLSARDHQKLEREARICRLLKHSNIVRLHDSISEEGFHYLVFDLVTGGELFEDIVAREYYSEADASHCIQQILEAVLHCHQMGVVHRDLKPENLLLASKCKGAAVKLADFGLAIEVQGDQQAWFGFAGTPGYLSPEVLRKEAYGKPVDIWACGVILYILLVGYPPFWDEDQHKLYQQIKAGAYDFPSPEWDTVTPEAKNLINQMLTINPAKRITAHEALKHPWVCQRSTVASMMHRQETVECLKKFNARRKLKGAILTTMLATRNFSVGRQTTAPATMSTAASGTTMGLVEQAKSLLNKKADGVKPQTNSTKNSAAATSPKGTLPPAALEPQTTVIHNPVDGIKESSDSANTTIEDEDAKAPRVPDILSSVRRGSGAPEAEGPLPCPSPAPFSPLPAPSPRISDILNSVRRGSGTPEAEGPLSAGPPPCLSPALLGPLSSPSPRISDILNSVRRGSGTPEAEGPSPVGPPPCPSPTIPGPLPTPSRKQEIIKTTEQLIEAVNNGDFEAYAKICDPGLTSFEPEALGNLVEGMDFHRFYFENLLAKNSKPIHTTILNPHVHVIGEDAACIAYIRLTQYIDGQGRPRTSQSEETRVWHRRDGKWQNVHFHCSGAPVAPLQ

COc1ccccc1N1CCN(Cc2cccnc2Oc2ccc(-c3c(C)c(=O)[nH]c(=O)n3C)c(C)c2)CC1
pKi (ADRA2C; ligand displacement, radioligand): ~7.96 and 7.97

C#CCOc1cccc(C(=O)CC(SCc2cccc(Br)c2)C(=O)O)c1 (centres unmarked)
pKi (OSBP; ligand displacement, FP): 3.93

Cc1nn(C)cc1S(=O)(=O)NC(=O)c1ccc(-n2ccc(OCC(C)(C)C(F)(F)F)n2)nc1N1C[C@@H](C)CC1(C)C
pKi (Bile salt export pump (ABCB11, Homo sapiens, UniProt O95342); transporter uptake, inhibitor; HEK293): 4.43

N#C[C@@]12C[C@@H]1[C@@H](n1cnc3c(N[C@@H](C4CCC4)C4CC4)nc(I)nc31)[C@H](O)[C@@H]2O
pKi (5-hydroxytryptamine receptor 2C (HTR2C, Homo sapiens, UniProt P28335); ligand displacement, radioligand): 7.17

C1=C/COCc2cc(ccc2OCCN2CCCC2)Nc2nccc(n2)-c2cccc(c2)COC/1
remaining binding (Epithelial discoidin domain-containing receptor 1 (DDR1, Homo sapiens, UniProt Q08345); binding; 0.1 µM): 54%

O=C1C(=O)N(Cc2ccc(Cc3ccc(CN4C(=O)C(=O)c5ccccc54)cc3)cc2)c2ccccc21
pKi (Replicase polyprotein 1ab, main protease (Feline coronavirus, UniProt Q98VG9); enzyme activity, inhibitor, fluorescence): 5.23

CNc1ncc2c(/C=C/C(=O)N3CCC(OC)CC3)nn(Cc3cccc(C(F)(F)F)c3)c2n1
remaining activity (Casein kinase I isoform gamma-1 (CSNK1G1, Homo sapiens, UniProt Q9HCP0); enzyme activity, inhibitor, radiometric; 1 µM): 103%

O=C(NO)c1cncc(OS(=O)(=O)Oc2ccc(C(F)(F)F)cc2)c1
pKi (HDAC8; enzyme activity, inhibitor, fluorescence): 6.10

Nc1ccn([C@@H]2O[C@H](CO)[C@@H](O)C2(F)F)c(=O)n1
viability (MCF7; cell growth or viability, MTT; 5 µg/mL, 24 h): 36.8%

Cc1ccc2[nH]c(=O)c(CNC3CCCCC3)cc2c1
pKi (Alpha-1A adrenergic receptor (ADRA1A, Homo sapiens, UniProt P35348, M292L); ligand displacement in cells, flow cytometry): 5.64

CNC(=O)[C@@]12C[C@@H]1[C@@H](n1cnc3c(NC)cc(C#Cc4ccc(Cl)s4)nc31)[C@H](O)[C@@H]2O
pKi (Tspo; ligand displacement, radioligand): < 5.00

CC/C=C\C[C@H](O)/C=C/C=C\C/C=C\C=C\[C@@H](O)C/C=C\CCC(=O)O
pKi (Prostaglandin E2 receptor EP4 subtype (PTGER4, Homo sapiens, UniProt P35408); ligand displacement, radioligand; cell membranes): 5.89

COc1ccc(C(=O)CC(SCc2ccc(Cl)cc2)C(=O)O)cc1 (centres unmarked)
pKi (OSBP; ligand displacement, FP): 3.49

Cc1cc(C(C)(C)C)ccc1OS(=O)(=O)Oc1cc(F)cc(C(=O)NO)c1
pKi (HDAC6; enzyme activity, inhibitor, fluorescence): 5.85

Cc1cc(Oc2ncccc2CN2CCN(c3ccc(F)c(F)c3)CC2)ccc1-c1c(C)c(=O)[nH]c(=O)n1C
pKi (ADRA2C; ligand displacement, radioligand): 7.05

Cc1cc(NS(=O)(=O)c2ccc(N=NN(O)c3ccccc3)cc2)no1
inhibition (ABTS scavenging; 240 µg/mL): 91.3%

CCOc1ccc(C(=O)CC(SCc2ccccc2Br)C(=O)O)cc1 (centres unmarked)
pKi (RAC-alpha serine/threonine-protein kinase (AKT1, Homo sapiens, UniProt P31749); ligand displacement, FP): 3.99

Cc1cc(Oc2ncccc2CN2CCN(Cc3ccc(F)cc3)CC2)ccc1-c1c(C)c(=O)[nH]c(=O)n1C
pKi (ADRA2B; ligand displacement, radioligand): 6.53

CCOc1ccccc1C(=O)CC(SCc1ccc(Cl)cc1)C(=O)O (centres unmarked)
pKi (1-phosphatidylinositol 4,5-bisphosphate phosphodiesterase delta-1 (PLCD1, Homo sapiens, UniProt P51178); ligand displacement, FP): < 3.00

Cc1cc(Oc2ncccc2CN2CCN(c3ccc([N+](=O)[O-])cc3C(F)(F)F)CC2)ccc1-c1c(C)c(=O)[nH]c(=O)n1C
pKi (ADRA2B; ligand displacement, radioligand): 5.88

C=CC(=O)N1CCC(COCC(=O)N2CCN(c3nc(-c4cnc(N)nc4C(F)F)nc(N4CCOC[C@@H]4C)n3)CC2)CC1
remaining binding (Serine/threonine-protein kinase DCLK3 (DCLK3, Homo sapiens, UniProt Q9C098); binding, competition with immobilised ligand; 1 µM): 100%

O=C(NO)c1cc(F)cc(OS(=O)(=O)Oc2ccc(C(F)(F)F)cc2)c1
pKi (HDAC8; enzyme activity, inhibitor, fluorescence): 5.69

Cc1cc(Oc2ncccc2CN2CCN(c3ccccc3C)CC2)ccc1-c1c(C)c(=O)[nH]c(=O)n1C
pKi (ADRA1A; ligand displacement, radioligand): 5.93

O=C(NO)c1cc(F)cc(OS(=O)(=O)Oc2ccccc2)c1
pKi (HDAC6; enzyme activity, inhibitor, fluorescence): 7.47

CCOc1ccc(C(=O)CC(SCc2ccc(Cl)cc2)C(=O)O)cc1OCC (centres unmarked)
pKi (OSBP; ligand displacement, FP): 3.66

Cc1ccc(N2CCN(Cc3cccnc3Oc3ccc(-c4c(C)c(=O)[nH]c(=O)n4C)c(C)c3)CC2)cc1C
pKi (ADRA2B; ligand displacement, radioligand): 6.68

CN(C)c1ncnc2c1ncn2[C@@H]1O[C@H](CO)[C@@H](O)[C@H]1O
pEC50 (Adenosine receptor A3 (ADORA3, Homo sapiens, UniProt P0DMS8, L264F); G protein activation, agonist): 4.18

CCCOC(=O)[C@@]12C[C@@H]1[C@@H](n1cnc3c(NC)nc(C#Cc4ccc(Cl)s4)nc31)[C@H](O)[C@@H]2O
pKi (Delta-type opioid receptor (OPRD1, Homo sapiens, UniProt P41143); ligand displacement, radioligand): < 5.00

O=C(/C=C/c1cccc(OS(=O)(=O)Oc2ccccc2)c1)NO
pKi (HDAC8; enzyme activity, inhibitor, fluorescence): 5.75

Cc1cc(Oc2ncccc2CN2CCN(c3cccc(C)c3C)CC2)ccc1-c1c(C)c(=O)[nH]c(=O)n1C
pKi (ADRA1A; ligand displacement, radioligand): 5.65

CCCCC(=O)Nc1ccc(-c2ccc3ncn(CCC)c(=O)c3c2)cn1
remaining binding (Calcium/calmodulin-dependent protein kinase type II subunit beta (CAMK2B, Homo sapiens, UniProt Q13554); binding, competition with immobilised ligand; 0.5 µM): 100%

Cc1ccc2oc(=O)cc(NCCO)c2c1
pKi (ADRA1A; ligand displacement in cells): 3.38

O=C(NO)c1cccc(OS(=O)(=O)Oc2ccc(Oc3ccccc3)cc2)c1
pKi (HDAC8; enzyme activity, inhibitor, fluorescence): 5.98

CCOc1ccc(-c2cc(C(=O)O)c(-c3ccc(Cl)cc3)o2)cc1
pKi (OSBP; ligand displacement, FP): < 4.00

O=C(NO)c1cncc(OS(=O)(=O)Oc2ccc(-n3ccnc3)cc2)c1
pKi (HDAC8; enzyme activity, inhibitor, fluorescence): 6.36

COc1cccc(-c2n[nH]c(SCc3ccccn3)n2)c1OC
concentration (female Sprague-Dawley rat, plasma; oral, 10 mg/kg, 4 h, single dose): 362 ng/mL

O=C(NO)c1cccc(OS(=O)(=O)Oc2ccc3c(c2)OCO3)c1
pKi (HDAC8; enzyme activity, inhibitor, fluorescence): 7.22

COc1cc(-c2cncc3c2CN(C)Cc2cc(N4CCNCC4)ccc2-3)cc(OC)c1OC
remaining activity (STE20-like serine/threonine-protein kinase (SLK, Homo sapiens, UniProt Q9H2G2); enzyme activity, inhibitor; 1 µM): 106%

Cc1cc(Oc2ncccc2CN2CCN(c3ccc(C(F)(F)F)cc3[N+](=O)[O-])CC2)ccc1-c1c(C)c(=O)[nH]c(=O)n1C
pKi (ADRA2C; ligand displacement, radioligand): 6.10

CNc1nc(C#Cc2ccc(Cl)s2)nc2c1ncn2[C@H]1[C@H](O)[C@H](O)[C@]2(C(=O)OC)C[C@H]12
pKi (Tspo; ligand displacement, radioligand): < 5.00

Cc1cc([C@@H](C)Nc2ccccc2C(=O)O)c2nc(N3CCC(F)(F)CC3)c(C#N)c(=O)n2c1
remaining binding (Serine/threonine-protein kinase 32C (STK32C, Homo sapiens, UniProt Q86UX6); binding, competition with immobilised ligand; 10 µM): 100%

CCOc1ccc(C(=O)CC(SCc2ccc(F)cc2)C(=O)O)cc1 (centres unmarked)
pKi (OSBP; ligand displacement, FP): 3.63

C#CCN(CCCN1CCN(c2ccc(F)cc2)CC1)Cc1ccc(C(=O)c2ccc([N+](=O)[O-])cc2)cc1
pKi (Sigma intracellular receptor 2 (TMEM97, Homo sapiens, UniProt Q5BJF2); ligand displacement, radioligand; cell membranes): 7.15 and 7.16

CCCN(O)N=Nc1ccc(S(=O)(=O)Nc2onc(C)c2C)cc1
inhibition (ABTS scavenging; 240 µg/mL): 52.9%
